Assay results collected from several papers.
Each numbered part is a random draw from the data of one study; scales do not carry over between parts.

Set 1
Target: Phosphate system positive regulatory protein PHO4, full length, GST-tagged (PHO4, Saccharomyces cerevisiae, UniProt P07270, residues 1-312)
Method: competition protein-binding microarray
Molecule type: double-stranded DNA, one strand shown
Sample: in vitro
Concentration: 2 µM
Setting: whole 60-bp probe, lowest competitor level
Added: Cbf1 competitor, 0.05 µM
Direction: higher = stronger binding
Construct (chain): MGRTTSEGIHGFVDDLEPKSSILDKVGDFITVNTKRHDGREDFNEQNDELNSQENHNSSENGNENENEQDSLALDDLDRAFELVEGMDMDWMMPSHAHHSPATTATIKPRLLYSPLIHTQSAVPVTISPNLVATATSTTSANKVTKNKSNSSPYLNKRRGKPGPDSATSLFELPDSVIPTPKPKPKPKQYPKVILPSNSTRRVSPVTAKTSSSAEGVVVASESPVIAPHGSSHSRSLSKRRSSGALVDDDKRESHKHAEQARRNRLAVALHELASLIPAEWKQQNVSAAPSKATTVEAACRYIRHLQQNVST
Oligonucleotide	fluorescence intensity
ATTCTATTGCAGAATGTTGTGATATTTCCAAGGTCTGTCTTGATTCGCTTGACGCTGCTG	4450 a.u.
CAATCTGGTGGGGGCACCGTGAATATCACCGTCGTCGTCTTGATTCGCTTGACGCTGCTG	4890 a.u.
CTTGCAAAAAGAAAAGGCGTGGCCGTAGTCTTCGCTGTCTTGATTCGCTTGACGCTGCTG	7030 a.u.
AATCTCGGTGAATTAACCGTGATGGATCACTTAGGTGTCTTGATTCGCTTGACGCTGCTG	3930 a.u.
CTTCTGTAAATTTGGGTCGTGGGTGGACGCGCCCCGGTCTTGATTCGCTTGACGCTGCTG	8680 a.u.
TACGAGCAAATTTTGCACGTATAGGGCGCCTATAACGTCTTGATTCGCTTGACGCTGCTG	4490 a.u.
CATACCCAACCTTGGGAGGTGGGTGAAGATATTTGTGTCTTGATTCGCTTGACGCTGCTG	4110 a.u.
GCCCTGTTGGAGGCCATCGTGGTCGCCAAGAAAGCAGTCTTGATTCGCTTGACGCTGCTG	8090 a.u.
CTTCTGTAAATTTGTTATGTGGGTGGACGCGCCCCGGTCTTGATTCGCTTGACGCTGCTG	4610 a.u.
TCTTTGAAGGTGCGTCATGCTCACTGTTGAACTCTAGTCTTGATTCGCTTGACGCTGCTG	5530 a.u.
CTTCTGTAAATTTCGCACGTGTTTTGACGCGCCCCGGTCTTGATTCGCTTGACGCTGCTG	16700 a.u.
TTGCATGTAAGCGTTACTAATATTCCGCTTTATTTTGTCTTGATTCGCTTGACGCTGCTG	3370 a.u.
CTCTTAGTTTGGCATCTCATGACGCGGCACACATTCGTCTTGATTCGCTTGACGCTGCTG	5780 a.u.
AAACATCAAATCCATCACGTGCTTTTTAAAAAATATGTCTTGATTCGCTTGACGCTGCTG	15200 a.u.
GATATCGTTCAAATGCTCGTGCTTTAACCTTAATACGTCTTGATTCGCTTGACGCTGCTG	11500 a.u.
AAAGCGGTAATTTGTGTTGTGGGTGCAGATATCTATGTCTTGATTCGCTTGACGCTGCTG	4360 a.u.
GATGAACTTGTTTAGCACGTGAATATAAGATGAGAGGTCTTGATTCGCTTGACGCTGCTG	18100 a.u.
AAAGCGGTAATTTGGTATGTGGGTGCAGATATCTATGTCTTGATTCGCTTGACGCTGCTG	5200 a.u.
AAAGCGGTAATTTGTCACCCTACTTCACATATCTATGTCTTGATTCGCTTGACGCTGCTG	4000 a.u.
TGAAAAATCTGAGACAACGTGCCAGTTTGTAAGTGCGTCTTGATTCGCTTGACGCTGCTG	15100 a.u.
AAAGCGGTAATTTGTCACTGTACTTCACATATCTATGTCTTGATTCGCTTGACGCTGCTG	3240 a.u.
CGTCCTAGTGATTGCTCGGTGGGTGCCATGAGGAAGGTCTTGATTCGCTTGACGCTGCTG	7820 a.u.
AAATTACTAAGTTGTTCTGTGGGTGACGCCGTATGAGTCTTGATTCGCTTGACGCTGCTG	3620 a.u.
CTAACGAAGGTTTGTCACTCCACTTACAAGCCAAGTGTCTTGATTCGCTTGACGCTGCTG	4070 a.u.
CTTGTTATGTGGGAGCCCGTGAGAGGCTTGAAGTGGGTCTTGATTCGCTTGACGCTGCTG	6810 a.u.

Set 2
Target: Histone acetyltransferase KAT6A, both winged helices, GST fusion (KAT6A, Homo sapiens, UniProt Q92794, residues 1-181)
Method: protein binding microarray
Molecule type: double-stranded DNA, one strand shown
Sample: in vitro
Concentration: not given
Setting: 8-mer, flanks averaged, mean of 2 arrays, mostly near background
Relative to: not given
Direction: higher = stronger binding
Construct (chain): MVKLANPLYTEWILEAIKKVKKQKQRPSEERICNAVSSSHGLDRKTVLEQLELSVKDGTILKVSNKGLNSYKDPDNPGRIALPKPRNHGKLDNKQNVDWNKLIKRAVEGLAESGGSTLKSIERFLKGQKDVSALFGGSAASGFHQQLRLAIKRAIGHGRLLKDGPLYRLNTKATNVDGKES
Oligonucleotide	E-score
GCTTTGTA	-0.0385
CTCTTCAA	-0.0806
TAAATCAA	-0.0138
CCGCTTCC	0.181
ACACAATG	-0.188
GCCCTACA	-0.11
TGATGAAA	-0.227
CGGGTTCA	0.307
AGTCAGAG	0.00825
AATTTCCG	0.157
CGAGGCTC	0.087
ACAGGCGC	0.152
AGAATTGG	-0.182
ATTCCCTA	-0.0709
ACCTGGTA	-0.264
TCGACAGA	0.136
ATAAGTAC	-0.0712
AGAGTGAA	-0.263
GAATTTGA	-0.0316
CCCTGACC	-0.0127
CGCGGCAG	0.368
CATGAGTC	-0.0495
ACGACAAT	-0.129
CTCACGAA	-0.096
CGACACAC	-0.0165

Set 3
Target: Prothrombin, mature alpha-thrombin (F2, Homo sapiens, UniProt P00734)
Method: aptamer microarray, sandwich
Molecule type: DNA with 2'F-ANA
Sample: in vitro
Concentration: 200 nM
Setting: whole 15-mer aptamer, many near background
Added: Cy3 exosite-II aptamer, 400 nM
Direction: higher = stronger binding
Oligonucleotide: GGTTGGTGTGGTTGG
Modification	mean fluorescence intensity [a.u.]
2'F-ANA at 3 4 8 9 10 11 12 14	182
2'F-ANA at 1 2 3 5 10 12 13 14 15	51
2'F-ANA at 1 6 8 11 15	193
2'F-ANA at 1 2 4 9 11 14 15	53.2
2'F-ANA at 3 4 6 7 8 10 12 14	176
2'F-ANA at 1 4 5 6 8 9 10 12 13 14 15	47.3
2'F-ANA at 1 2 3 5 13 15	52.1
2'F-ANA at 4 5 6 7 9 11 14	45.8
2'F-ANA at 4 5 6 7 8 9 11 13 14 15	44.3
2'F-ANA at 1 2 3 9 10 14	54.8
2'F-ANA at 2 3 5 8 11 13	85.9
2'F-ANA at 1 4 6 7 10 11 15	79.6
2'F-ANA at 2 5 6 8 9 11 14	53.3
2'F-ANA at 2 3 4 6 8 9 10 13 14	156
2'F-ANA at 1 2 3 4 5 7 8 10 11 15	259
2'F-ANA at 1 3 5 7 9 12 14 15	59
2'F-ANA at 2 4 5 6 7 8 9 14 15	48.2
2'F-ANA at 6 7 8 9 10 12	209

Set 4
Target: Ras GTPase-activating protein-binding protein 1, C-terminal RGG region (G3BP1, Homo sapiens, UniProt Q13283)
Chain of UniProt Q13283 (whole entry, looked up): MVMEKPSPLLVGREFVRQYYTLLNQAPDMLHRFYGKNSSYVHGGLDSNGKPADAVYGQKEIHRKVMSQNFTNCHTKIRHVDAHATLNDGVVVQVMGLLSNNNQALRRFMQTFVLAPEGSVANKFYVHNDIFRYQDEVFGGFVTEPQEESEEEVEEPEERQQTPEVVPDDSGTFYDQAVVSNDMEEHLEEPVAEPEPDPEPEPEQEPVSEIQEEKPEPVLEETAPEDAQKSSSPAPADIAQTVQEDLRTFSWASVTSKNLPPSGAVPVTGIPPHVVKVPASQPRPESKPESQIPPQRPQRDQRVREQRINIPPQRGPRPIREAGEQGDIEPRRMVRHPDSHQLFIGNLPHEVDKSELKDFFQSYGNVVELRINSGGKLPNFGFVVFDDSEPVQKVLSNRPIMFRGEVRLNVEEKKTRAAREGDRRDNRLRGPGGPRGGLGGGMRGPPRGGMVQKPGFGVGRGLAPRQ
Method: RNA Bind-n-Seq
Molecule type: RNA
Sample: in vitro
Concentration: 1 µM
Setting: whole 134-nt RNA, ends assumed
Added: 150 mM KCl
Relative to: input library
Direction: higher = stronger binding
Oligonucleotide	log2 enrichment
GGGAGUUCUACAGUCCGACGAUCCAAGUCCUGUGCUACACAUCGUAUGUACCGAAUCGGUUUUUUUGGUGGUUUUUGGAAAGUAUUAUGUUACGCCGUUCGGAUCUGCACUUCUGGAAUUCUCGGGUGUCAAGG	-1.72
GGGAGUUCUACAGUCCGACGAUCUCCUGUGCUACACAUCGUAUGUACCGAAUCGGGCCCCCGGGGCCCCCGGGGCCCCCGGGGAAAGUAUUAUGUUACGCCGUUCGGAUCUGCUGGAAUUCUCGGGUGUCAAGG	-1.63
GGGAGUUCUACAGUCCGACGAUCCUCAAGUCCUGUGCUACACAUCGUAUGUACCGAAUCGGGUUUGGUUUGGUUUGGAAAGUAUUAUGUUACGCCGUUCGGAUCUGCACUUCCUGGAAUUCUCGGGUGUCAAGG	-1.09
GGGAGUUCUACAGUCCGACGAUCUGGGAGGUGGAUUUUGGUUAUUUUUUUAGCUCAUUUCCAGGGGUGGGAAUUUUUUUUUAAUAUGUGUCAUGAAUAAAGUUGUUUUUGAAAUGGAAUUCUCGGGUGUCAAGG	3.26
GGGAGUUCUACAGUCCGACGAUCACCAUGCAGGUGGGCAUCUUUGGGAAGUGGGGCAAGGGGGGGAUAGGUAGGGGGGUAACACUUUGGGAACAGGUGGUCCCAGGUCGUUUCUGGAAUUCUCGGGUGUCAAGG	2.14
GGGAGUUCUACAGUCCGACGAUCUUAAGUUGAAGGAGCGCUACCGCAACGUGCUGGACACCAUGUUCGAGCUGCUGCCCCGGAUGGCCAGGUACUGCCAGCCCCCACCCUGGCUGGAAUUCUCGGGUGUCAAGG	-0.955
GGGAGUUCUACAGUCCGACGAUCUAACUUUAGAGGAGGAUCUGAUGGAUAUGGCAGUGGACGUGGAUUUGGGGAUGGCUAUAAUGGGUAUGGAGGAGGACCUGGAGGUGGCACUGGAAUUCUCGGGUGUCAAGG	-0.547
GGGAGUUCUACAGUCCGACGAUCUCCUGUGCUACACAUCGUAUGUACCGAAUCAAACCCCCCCAAACCCCCAAAUUUUUAAAAAAGUAUUAUGUUACGCCGUUCGGAUCUGCAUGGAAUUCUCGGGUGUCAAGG	-0.475
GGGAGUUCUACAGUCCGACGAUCAAGUCCUGUGCUACACAUCGUAUGUACCGAAUCGGAAAGGAAAAAAAGGUUUUUGGAAAGUAUUAUGUUACGCCGUUCGGAUCUGCACUUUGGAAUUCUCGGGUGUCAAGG	-2.2
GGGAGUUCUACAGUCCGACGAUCGUCCUGUGCUACACAUCGUAUGUACCGAAUCGGGGUUUUUGGGGUUUUUGGGGAGGGGAAAGUAUUAUGUUACGCCGUUCGGAUCUGCACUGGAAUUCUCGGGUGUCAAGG	1.51
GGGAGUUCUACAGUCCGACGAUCCUCAAGUCCUGUGCUACACAUCGUAUGUACCGAAUCGGAAAGGAGGAAAAAGGAAAGUAUUAUGUUACGCCGUUCGGAUCUGCACUUCCAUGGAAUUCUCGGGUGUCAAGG	-1.24
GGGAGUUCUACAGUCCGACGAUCUCAAGUCCUGUGCUACACAUCGUAUGUACCGAAUCGGGUGGGUUUUUGGGUGGGAAAGUAUUAUGUUACGCCGUUCGGAUCUGCACUUCCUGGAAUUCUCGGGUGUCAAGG	0.952
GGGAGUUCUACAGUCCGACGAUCGCAGGAAGUAAAAACAAAUGGAAAUGCUUCGAAUAGUGGCAGGGGUGGGGGUUGCUAAGGAAAGGGUGGGAUGGGAGUGGGUAAAGAGUUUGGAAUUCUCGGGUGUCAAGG	1.96
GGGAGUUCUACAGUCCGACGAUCUCUAUCCUGUCCCUCCACCCCACCCUCCACCUCAAUCCCCUCCCAUCUUCCCCAGACCUACCUCACCUACUAGGACCUGAGGCAGCUCCUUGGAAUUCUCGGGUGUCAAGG	0.127

Set 5
Target: Sal-like protein 4, full length isoform B (SALL4, Homo sapiens, UniProt Q9UJQ4-2, residues 1-616)
Method: universal PBM
Molecule type: double-stranded DNA, one strand shown
Sample: in vitro
Concentration: not given
Setting: 8-mer, flanks averaged, mean of replicates
Direction: higher = stronger binding
Oligonucleotide	E-score
AATCAATC	0.112
AGGACTTG	-0.145
GGTTACCA	-0.199
AAAAATCT	0.271
CCTTCGTA	-0.123
GCTGAATA	0.208
CAATTAAA	0.219
AACCTGTC	-0.0504
AGAGAAAC	0.0461
CTGCAATA	0.313
CTGTCACA	0.0151
AAATTAGG	0.239
CAAGCTCC	-0.179
CATTGGAC	-0.0703
CAGCTTAG	-0.154
GATCGAAC	-0.133
GGCTTGAC	-0.202

For quick reference, copied from above (set 3):
Modification	mean fluorescence intensity [a.u.]
2'F-ANA at 2 3 4 6 8 9 10 13 14	156
2'F-ANA at 3 4 6 7 8 10 12 14	176
2'F-ANA at 1 2 3 9 10 14	54.8
2'F-ANA at 1 2 3 5 13 15	52.1
2'F-ANA at 2 3 5 8 11 13	85.9
2'F-ANA at 6 7 8 9 10 12	209
2'F-ANA at 1 2 4 9 11 14 15	53.2
